Measurements gathered from unrelated publications.
Each line is one published result; not all experiments were run side by side. Numbers after ± are the reported error.
Target: Metallo-beta-lactamase type 2 (Serratia marcescens, UniProt P52699)
Chain of UniProt P52699 (whole entry, looked up): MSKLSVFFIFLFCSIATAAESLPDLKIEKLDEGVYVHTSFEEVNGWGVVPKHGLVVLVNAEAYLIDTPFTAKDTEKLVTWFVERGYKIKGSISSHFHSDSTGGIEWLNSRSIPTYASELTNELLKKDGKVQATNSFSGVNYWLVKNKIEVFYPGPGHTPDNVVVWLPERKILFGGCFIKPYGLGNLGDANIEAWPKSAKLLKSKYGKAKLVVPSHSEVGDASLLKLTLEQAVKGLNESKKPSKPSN
Action: inhibitor

CC(C)C1=CCC(C(=O)O)C(C(=O)O)C1 (stereo not drawn)  IC50 (10 min preincubation, added: FC5 fluorogenic substrate): 49.8 µM
CN(C)c1ccc2c(c1)C(=O)N(C(CS)C(N)=O)C2=O (stereo not drawn)  IC50 (enzyme activity; pH 7.0, added: chromacef 25 µM): 0.51 ± 0.07 µM
Cn1nnc(-c2ccccc2NC(=O)CCS)n1  IC50 (10 min preincubation, added: FC5 substrate): 4.68 µM
O=C(O)C(c1ccccc1)n1cnnn1 (stereo not drawn)  IC50 (10 min preincubation, added: FC5 fluorogenic substrate): 526 µM
CN[C@H](CC(C)C)C(=O)N[C@H]1C(=O)N[C@@H](CC(N)=O)C(=O)N[C@H]2C(=O)N[C@H]3C(=O)N[C@H](C(=O)N[C@H](C(=O)O)c4cc(O)cc(O)c4-c4cc3ccc4O)[C@H](O)c3ccc(c(Cl)c3)Oc3cc2cc(c3O[C@@H]2O[C@H](CO)[C@@H](O)[C@H](O)[C@H]2O[C@H]2C[C@](C)(NCc3ccc(C(=O)OCCCCCCN(Cc4ccccn4)Cc4ccccn4)cc3)[C@H](O)[C@H](C)O2)Oc2ccc(cc2Cl)[C@H]1O  IC50 (enzyme activity, nitrocefin absorbance; added: nitrocefin): 4 ± 1.7 µM
CC(C)C(=O)Nc1cccc(-c2nn[nH]n2)c1  IC50 (10 min preincubation, added: FC5 substrate): > 100 µM
O=C(O)c1cccc(CP(=O)(O)O)n1  IC50 (enzyme activity; 10 min preincubation, added: nitrocefin substrate): 3.88 µM
O=C(O)c1ncsc1-c1ccccc1  IC50 (10 min preincubation, added: FC5 fluorogenic substrate): 57.5 µM
C[C@H](CS)C(=O)Nc1ccccc1-c1nnn(Cc2ccccc2)n1  IC50 (10 min preincubation, added: FC5 substrate): 1.36 µM

Repeated from above:
CC(C)C(=O)Nc1cccc(-c2nn[nH]n2)c1  IC50 (10 min preincubation, added: FC5 substrate): > 100 µM
